Experimental data from different studies.
Numbered parts are unrelated; each lists some results of a single study. Changes are numbered by the printed parent chain.

Series 1 — target: CCNA1, cyclin fold, Cln2 fusion (human); technique: yeast growth competition, sequencing; medium: yeast; notes: weak parent motif; relative to: not given; direction: higher = stronger binding
Starting sequence: SLBP docking peptide (human); ARYKRKLLINDFG; partner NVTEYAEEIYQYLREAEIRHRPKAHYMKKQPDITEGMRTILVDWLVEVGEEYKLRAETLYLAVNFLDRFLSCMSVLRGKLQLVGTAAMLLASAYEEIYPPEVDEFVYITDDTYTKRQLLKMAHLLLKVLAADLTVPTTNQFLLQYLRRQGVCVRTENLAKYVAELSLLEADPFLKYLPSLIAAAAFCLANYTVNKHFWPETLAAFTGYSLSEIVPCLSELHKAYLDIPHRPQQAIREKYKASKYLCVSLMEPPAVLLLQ
`R2C`: “normalised enrichment score” -0.00711.
For `K4R`, “normalised enrichment score” read 0.134.
For `K4V`, “normalised enrichment score” read 0.454.
Under “normalised enrichment score”, `A1P` is recorded as 0.431.
`G13A` — result for “normalised enrichment score”: -0.0919.
For `G13C`, “normalised enrichment score” read 0.473.
Under “normalised enrichment score”, `F12N` is recorded as 0.238.
Under “normalised enrichment score”, `G13T` is recorded as 0.219.

Series 2 — technique: RNA Bind-n-Seq; form: RNA; medium: in vitro; concentration: 365 nM; relative to: no-protein control; direction: higher = stronger binding
Target: RNA binding protein fox-1 homolog 2, RRM domain, GST-SBP tag (RBFOX2, Homo sapiens, UniProt O43251-10, residues 100-194)
Notes: natural RNA segment, single round, ends assumed
All sequences stand within: GGGAGUUCUACAGUCCGACGAUC … UGGAAUUCUCGGGUGCCAA
Residues (chain): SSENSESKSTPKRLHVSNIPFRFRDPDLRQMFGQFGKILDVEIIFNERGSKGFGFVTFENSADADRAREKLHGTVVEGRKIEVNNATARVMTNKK
`GUCAUAGUUGAAAUGAUGUUUAUUGUAGAUGGUAUUUGAACUUAUUCUUCUGGAAAUAGUUCAUCAAGUAUGUUUGUUGCUCAUUGUGAUACAUUAAAAACUGUAUCUGC` — result for “RBNS enrichment (R)”: 0.833.
`AACCCAGGUUAAAUACAGCCCAUGCACAAAGCCACAGGCCAAAGCCUAUGGAAUUGUUUUUAAUCAUCAAAUUUAACCAUUUUCAUAACUGGUUCCUGGAGGUGUGCAGU` — result for “RBNS enrichment (R)”: 0.347.
`CACGCAUUGAAUACAUUUAAACUGUUCAUUAGCGGAGUGAUAUUUGGACAUAAAUAUCUCGUCUUCCAAUUUUAUGUAAUUAUACCUAACUUAUACCCUUGUAAAACUUG`: “RBNS enrichment (R)” 0.569.
`UUUCGAUAGUUGAUGUCUUCUUGCCUUUUUAAAAAACCAUAUAUAUAUAAAGUUUAGGGUUUGCUCUAUUCUUUGGUAUGGAUUGCUGUGUUCUUUGGGAGGUUAUUAGG` — result for “RBNS enrichment (R)”: 0.481.
Under “RBNS enrichment (R)”, `CCCUAGCCACGUCCCCAGGUACUACAGUCCACUGCAAGCCUGCUCACCUCUGCCUGGAAGAGCUUGGACCAGAAACGACCUCCUCCUCUCUGUGUGUUGGAGGGAGAGGA` is recorded as 0.874.
Under “RBNS enrichment (R)”, `UUGUCCAGUAAUAAAAUAUAGAACCUUUCAAAAUGCUUUUCUGGUUUAUAAAGUACUGAAUUGCCCUAUAAGACCCGAUAAGGCUUCUUCUGUGGGGUAAAAUAUUGUUU` is recorded as 0.514.
Under “RBNS enrichment (R)”, `AUAGUUCUGAGUUCUGUCAAAUGCCGUGAAAGUAUUUGCUAUAAUAAAGAAAAUUCUUGUGACUUUACUACCAGGACUUUUCUCUUCCCCAUGUCAAAAUACAAUCAAUA` is recorded as 0.413.
`AUUUUAAAAAAUGGUCACGUUUGGUGCUUCUCAGAUUUCUGAGGAAAUUGCUUUGUAUUGUAUAUUACAAUGAUCACCGACUGAAAAUAUUGUUUUACAAUAGUUCUGUG`: “RBNS enrichment (R)” 0.369.
`GCUCUCAGGUGAACGUGGCCGUCAGCGGGGAAACGUGUGUGUCAGUUGGACCAUGUGGGACCCUGAUGGACCUGAAAGACCAGGAUCGGUCCAGCUCAGAUAUUGAGGGC` — result for “RBNS enrichment (R)”: 0.66.
Under “RBNS enrichment (R)”, `UUGCAACACAUUCAUUUGGAUAAGUUGUGAUUUGACGACUGAUUUAAAUAAAAUAUUUGCUUCACUUAGAUUUGCUGGUUUUAUUAGAUACCAGGAAGCCUGGGACAUAU` is recorded as 0.281.
`UUCUGAGCCUUGAAAUUGAGGAGGUUAAAAGGAAGAGCCUUAAGAUUUUGAUUUAUGUCAAAUCCUAAUUCUAUCAUUCAGUCUUGUUUGGAGUUCUGAACCCAUGAUGU` — result for “RBNS enrichment (R)”: 0.595.
For `UGAUUCACUAAUUAGGGGGAAAAAAGGUCUUGGUGGAUGUCAGUGCUUACUCCCCAUGAAAUUAAAUUUUACUUCAUCCUUUGAGAAGCGAAUGGUGAAAGCUACUGAAA`, “RBNS enrichment (R)” read 0.429.

Series 3 — technique: DHFR PCA, deep sequencing; medium: yeast; together with: (+)-ABA 17 µM; relative to: wild-type fitted maximum; direction: higher = stronger binding
Target: ABI1, truncated, D143A, DHFR fusion (Arabidopsis thaliana)
Notes: methotrexate growth selection, single substitutions
Starting sequence: PYL1, truncated, DHFR fusion (Arabidopsis thaliana); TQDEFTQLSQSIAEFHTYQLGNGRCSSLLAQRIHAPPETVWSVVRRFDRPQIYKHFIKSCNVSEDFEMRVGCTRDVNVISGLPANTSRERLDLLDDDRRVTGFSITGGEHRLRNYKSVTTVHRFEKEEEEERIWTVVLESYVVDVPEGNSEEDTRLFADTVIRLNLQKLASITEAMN; partner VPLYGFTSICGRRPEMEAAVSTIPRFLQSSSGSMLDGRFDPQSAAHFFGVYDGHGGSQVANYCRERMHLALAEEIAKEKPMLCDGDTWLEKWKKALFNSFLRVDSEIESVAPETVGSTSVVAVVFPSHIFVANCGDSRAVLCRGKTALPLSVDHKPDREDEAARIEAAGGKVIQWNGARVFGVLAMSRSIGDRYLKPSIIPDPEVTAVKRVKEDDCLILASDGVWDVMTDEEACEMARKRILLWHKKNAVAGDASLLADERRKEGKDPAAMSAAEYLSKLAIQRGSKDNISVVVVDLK
Under “relative binding score”, `A170V` is recorded as 20.4%.
For `S9G`, “relative binding score” read 80%.
`A158C`: “relative binding score” 104%.
`R32N` — result for “relative binding score”: 57.3%.
`S171D`: “relative binding score” 90.3%.
`G107T`: “relative binding score” 20.5%.
`V145G` — result for “relative binding score”: -5.02%.
`T86D` — result for “relative binding score”: 66.5%.
`F47V` — result for “relative binding score”: -1.33%.
For `E89Y`, “relative binding score” read -2.64%.
`R163T`: “relative binding score” 70.1%.
`K168F`: “relative binding score” 21%.
For `A175Y`, “relative binding score” read 69.6%.

Further values, each from its own experiment
With `PhoQ, residues 284 288 289 292 302 303 ASASEQ` the fold induction was 20.9 (PhoP, residues 12 14 15 18 19 LHHVQ (Escherichia coli, UniProt P23836); Sort-seq, item: YFP reporter; E. coli; PhoQ-PhoP variant library, together with: 10 µM Mg2+; relative to: high Mg2+ state, higher = stronger signaling).
